Measurements from different studies.
Each numbered part is a random draw from the data of one study; scales do not carry over between parts. Changes are numbered by the printed parent chain.

Block 1
Target: Sal-like protein 4, full length isoform A (SALL4, Homo sapiens, UniProt Q9UJQ4, residues 1-1053)
Chain of UniProt Q9UJQ4 (whole entry, looked up): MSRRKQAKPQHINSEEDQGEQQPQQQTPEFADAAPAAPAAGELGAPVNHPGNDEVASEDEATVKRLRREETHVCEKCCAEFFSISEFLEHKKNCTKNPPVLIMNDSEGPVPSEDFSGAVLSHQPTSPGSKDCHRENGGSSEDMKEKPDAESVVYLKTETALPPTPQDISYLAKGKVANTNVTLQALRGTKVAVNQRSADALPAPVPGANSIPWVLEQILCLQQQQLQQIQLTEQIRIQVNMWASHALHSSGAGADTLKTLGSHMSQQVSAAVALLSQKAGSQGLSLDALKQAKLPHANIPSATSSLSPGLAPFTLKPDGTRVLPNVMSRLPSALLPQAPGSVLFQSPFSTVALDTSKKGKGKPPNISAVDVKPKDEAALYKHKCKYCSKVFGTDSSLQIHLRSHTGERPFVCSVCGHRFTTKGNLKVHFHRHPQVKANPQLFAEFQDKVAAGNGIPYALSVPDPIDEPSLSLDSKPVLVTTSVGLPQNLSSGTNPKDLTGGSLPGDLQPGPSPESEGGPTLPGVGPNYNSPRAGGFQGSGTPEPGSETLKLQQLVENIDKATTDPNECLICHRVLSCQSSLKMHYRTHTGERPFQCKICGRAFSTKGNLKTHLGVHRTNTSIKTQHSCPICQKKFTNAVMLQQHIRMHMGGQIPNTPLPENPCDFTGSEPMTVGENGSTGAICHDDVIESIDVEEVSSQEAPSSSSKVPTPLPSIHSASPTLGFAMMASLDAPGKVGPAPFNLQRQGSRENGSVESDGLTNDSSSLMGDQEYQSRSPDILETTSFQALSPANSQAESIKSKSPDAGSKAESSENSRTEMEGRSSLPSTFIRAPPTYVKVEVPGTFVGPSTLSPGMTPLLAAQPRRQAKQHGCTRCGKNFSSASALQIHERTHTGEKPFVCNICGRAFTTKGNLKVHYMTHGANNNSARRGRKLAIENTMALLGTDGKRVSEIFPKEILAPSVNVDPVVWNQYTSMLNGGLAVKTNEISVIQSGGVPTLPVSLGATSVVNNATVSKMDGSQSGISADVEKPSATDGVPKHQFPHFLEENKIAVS
Method: universal PBM
Molecule type: double-stranded DNA, one strand shown
Sample: in vitro
Concentration: 600 nM
Setting: 8-mer, flanks averaged, mean of replicates
Reading: higher = stronger binding
Sequence | E-score
GCAGCACC | -0.227
CAGTGGAA | -0.151
TACCCGCA | -0.14
GGATATAC | 0.138
AGCTCCGA | -0.075
AGAGACAG | -0.0821
CAGGGGCA | -0.178
ATGGGACA | -0.127

Block 2
Target: CREBRF, bZIP domain (human)
Method: DHFR protein complementation
Sample: yeast
Setting: single substitutions, most at no-binding floor
Baseline: wild-type JUN-FOS pair
Reading: higher = stronger binding
Starting sequence: JUN, bZIP domain (human); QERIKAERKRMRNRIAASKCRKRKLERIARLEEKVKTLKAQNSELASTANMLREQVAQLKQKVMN; partner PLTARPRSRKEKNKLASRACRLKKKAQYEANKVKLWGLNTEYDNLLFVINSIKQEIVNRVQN
Variant | binding fitness
T37I | -1.53 natural log
S47C | -1.46 natural log
A40P | -1.5 natural log
K36I | -1.31 natural log
V56F | -1.46 natural log

Block 3
Target: Interferon regulatory factor 7, full length, phosphomimetic (IRF7, Homo sapiens, UniProt Q92985, residues 1-503, S101K/S471D/S472D/S475D/S476D/S477D/S483D/S484D/S487D)
Method: protein-binding microarray
Molecule type: double-stranded DNA, one strand shown
Sample: in vitro
Concentration: 250 nM
Setting: 60-bp whole probe
With: salmon DNA 0.4 mg/ml
Baseline: random background probes
Reading: higher = stronger binding
Constant ends, left off below: GCCTAGCAC … GTCTTGATTCGCTTGACGCTGCTG
Construct (chain): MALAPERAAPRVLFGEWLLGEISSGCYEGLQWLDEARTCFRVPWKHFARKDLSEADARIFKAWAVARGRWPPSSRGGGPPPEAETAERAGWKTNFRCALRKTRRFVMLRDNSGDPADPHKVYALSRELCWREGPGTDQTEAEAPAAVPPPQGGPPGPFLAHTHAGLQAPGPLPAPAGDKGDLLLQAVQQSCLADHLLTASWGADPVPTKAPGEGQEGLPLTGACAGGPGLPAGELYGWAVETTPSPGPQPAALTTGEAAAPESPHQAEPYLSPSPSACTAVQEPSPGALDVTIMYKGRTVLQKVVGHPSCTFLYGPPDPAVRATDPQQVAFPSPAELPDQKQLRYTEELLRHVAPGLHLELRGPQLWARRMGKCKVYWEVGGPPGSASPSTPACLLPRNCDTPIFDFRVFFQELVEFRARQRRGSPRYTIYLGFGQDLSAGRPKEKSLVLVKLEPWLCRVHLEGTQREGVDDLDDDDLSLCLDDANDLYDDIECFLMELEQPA
Sequence | log fluorescence [z-score]
GACGGACTGGACTATCGGGGCGTGCTA | -0.606
CCCAGGGTCTGTTTGGGTCTGTGCTAG | -0.35
GACGGACTGGACACAGGGGACGTGCTA | -0.808
CTTAACCTGGGTCTCTGAAGGTGCTAG | -0.0619
TTAGGTTTCCTTTCCCTGTAGTGCTAG | 5.19
GACGGTATCATTTTCCTGACGTGCTAG | 0.787
GACGAACTGGGGTTTAGAGACGTGCTA | -0.756

Further values, each from its own experiment
Molecule | target | assay | test system | setting | scale | endpoint | value
PhoQ, residues 284 288 289 292 302 303 NLSRDF | PhoP, residues 12 14 15 18 19 GHCSL (Escherichia coli, UniProt P23836) | Sort-seq, refers to: YFP reporter | E. coli | PhoQ-PhoP variant library, with: 10 µM Mg2+ | baseline: high Mg2+ state, higher = stronger signaling | fold induction | 14.4

Some of these lines once more (block 1):
Sequence | E-score
GCAGCACC | -0.227
